{"data": "Measurements gathered from unrelated publications", "note": "A part holds a random share of what one study measured. Changes are numbered by the printed parent chain.", "UniProt P62837, sequence (whole entry, looked up)": "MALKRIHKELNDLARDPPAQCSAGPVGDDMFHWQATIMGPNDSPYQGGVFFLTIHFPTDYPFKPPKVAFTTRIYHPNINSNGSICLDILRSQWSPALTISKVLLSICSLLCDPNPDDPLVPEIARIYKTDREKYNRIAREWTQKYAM"}
{"data": "Set 1", "target": "Phosphate system positive regulatory protein PHO4, full length, GST-tagged (PHO4, Saccharomyces cerevisiae, UniProt P07270, residues 1-312)", "method": "competition protein-binding microarray", "molecule type": "double-stranded DNA, one strand shown", "medium": "in vitro", "concentration": "2 µM", "notes": "whole 60-bp probe, lowest competitor level", "with": "Cbf1 competitor, 0.05 µM", "direction": "higher = stronger binding", "constant ends, left off below": "… GTCTTGATTCGCTTGACGCTGCTG", "Residues (chain)": "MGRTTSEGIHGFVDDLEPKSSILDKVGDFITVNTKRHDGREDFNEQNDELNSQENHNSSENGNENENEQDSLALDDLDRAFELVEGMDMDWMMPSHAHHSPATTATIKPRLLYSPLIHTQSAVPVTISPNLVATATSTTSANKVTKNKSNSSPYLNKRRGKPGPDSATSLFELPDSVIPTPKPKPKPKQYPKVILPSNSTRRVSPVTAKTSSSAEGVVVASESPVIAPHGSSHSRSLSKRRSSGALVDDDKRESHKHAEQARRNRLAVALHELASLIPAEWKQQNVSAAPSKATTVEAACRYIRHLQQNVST"}
{"Sequence": "CGCGGAATGACTGGACCCGTGGGTAATCGCAGGGGA", "fluorescence intensity [a.u.]": 8290}
{"Sequence": "ATTGAGAAGTATAACGACACCCAGTGGACCTCGGGT", "fluorescence intensity [a.u.]": 3990}
{"Sequence": "TATAGAAAATTTCTGAGTGAAGGGTGGTCTATACAC", "fluorescence intensity [a.u.]": 5580}
{"Sequence": "AACAAGAAGATCCATCACGTGCTTTGAAAAAAAATA", "fluorescence intensity [a.u.]": 17800}
{"Sequence": "TGCTGCGGACAGTTCTCCGTGACGGGATCGCGCAAT", "fluorescence intensity [a.u.]": 3500}
{"Sequence": "AGCGCCAATTGGTTACTCGTGAAGCTCAGATTAAAG", "fluorescence intensity [a.u.]": 4490}
{"Sequence": "TCGGGCTCCGTTTCGTCCGTGGGTACTCCAGCAGAT", "fluorescence intensity [a.u.]": 4960}
{"Sequence": "TCTCGAAATTTGTCTTTCGTGATGGTTGCACAGTCT", "fluorescence intensity [a.u.]": 3780}
{"data": "Set 2", "target": "HLA class I histocompatibility antigen, A alpha chain, allele A*80:01 (Homo sapiens, UniProt P04439)", "read-out": "peptide-MHC binding", "molecule type": "peptide", "concentration": "concentration not given"}
{"Molecule": "KARNIISPV", "binding": "inactive"}
{"Molecule": "YYWPRPRRY", "binding": "inactive"}
{"Molecule": "ERTDLFFPV", "binding": "inactive"}
{"Molecule": "MYKLNKPTK", "binding": "inactive"}
{"data": "Set 3", "target": "FOSB, bZIP domain (human)", "method": "DHFR protein complementation", "medium": "yeast", "notes": "single substitutions, most at no-binding floor", "reference": "wild-type JUN-FOS pair", "direction": "higher = stronger binding", "starting sequence": "JUN, bZIP domain (human); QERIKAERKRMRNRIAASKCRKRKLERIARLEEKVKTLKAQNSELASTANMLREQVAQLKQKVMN; partner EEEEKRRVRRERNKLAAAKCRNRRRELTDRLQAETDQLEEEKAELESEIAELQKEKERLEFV"}
{"Change": "S43A", "binding fitness [natural log]": 0.0847}
{"Change": "L31H", "binding fitness [natural log]": -0.468}
{"Change": "T37A", "binding fitness [natural log]": 0.019}
{"Change": "A57M", "binding fitness [natural log]": -0.127}
{"Change": "A49E", "binding fitness [natural log]": -1.13}
{"Change": "L31T", "binding fitness [natural log]": -0.779}
{"Change": "L31G", "binding fitness [natural log]": -0.852}
{"Change": "E44A", "binding fitness [natural log]": -0.017}
{"data": "Set 4", "target": "CCNE1, cyclin fold, Cln2 fusion (human)", "method": "yeast growth competition, sequencing", "medium": "yeast", "notes": "strong parent motif", "reference": "not given", "direction": "higher = stronger binding", "starting sequence": "viral docking peptide; TSVRRALFTGGSD; partner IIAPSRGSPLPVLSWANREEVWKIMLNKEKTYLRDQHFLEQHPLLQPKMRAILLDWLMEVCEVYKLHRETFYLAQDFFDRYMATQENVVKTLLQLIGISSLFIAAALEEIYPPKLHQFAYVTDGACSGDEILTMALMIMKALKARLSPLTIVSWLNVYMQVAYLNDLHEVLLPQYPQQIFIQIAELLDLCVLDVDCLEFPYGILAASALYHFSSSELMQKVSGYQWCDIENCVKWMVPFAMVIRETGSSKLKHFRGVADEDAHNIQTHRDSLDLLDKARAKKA"}
{"Change": "G11C", "normalised enrichment score": 5.74}
{"Change": "R4V", "normalised enrichment score": 5.85}
{"Change": "V3Y", "normalised enrichment score": 3.51}
{"Change": "R5S", "normalised enrichment score": 0.303}
{"Change": "G11W", "normalised enrichment score": 4.35}
{"Change": "R4M", "normalised enrichment score": 1.86}
{"Change": "A6M", "normalised enrichment score": 4.84}
{"Change": "S2M", "normalised enrichment score": 4.23}
{"Change": "A6R", "normalised enrichment score": 7.36}
{"Change": "T9Y", "normalised enrichment score": 4.13}
{"Change": "S2R", "normalised enrichment score": 5.48}
{"Change": "S2I", "normalised enrichment score": 2.77}
{"Change": "S2G", "normalised enrichment score": 6.18}
{"Change": "R4I", "normalised enrichment score": 4.06}
{"Change": "G11Y", "normalised enrichment score": 4.9}
{"Change": "R5E", "normalised enrichment score": -0.16}
{"Change": "R4Y", "normalised enrichment score": 0.993}
{"data": "Single results of other studies", "B1": "ANKIB1 RING domain (UniProt Q9P2G1); chain LSPGDLDTSLCDICMCSISVFEDPVDMPCGHDFCRGCWESFLNLKIQEGEAHNIFCPAYDCFQLVPVDIIE"}
{"Molecule": "B1 (ANKIB1 RING domain)", "target": "UBE2D2 UBC core domain (UniProt P62837)", "test": "yeast two-hybrid", "test system": "yeast", "conditions": "mostly zero background", "how to read": "reference: not given, higher = stronger interaction", "measurement": "lacZ reporter activity", "result": 0}
{"note": "Excerpt of the above (set 4):"}
{"Change": "R4Y", "normalised enrichment score": 0.993}
{"Change": "A6M", "normalised enrichment score": 4.84}
{"Change": "R4M", "normalised enrichment score": 1.86}
{"Change": "G11C", "normalised enrichment score": 5.74}
{"Change": "R5S", "normalised enrichment score": 0.303}
{"Change": "S2R", "normalised enrichment score": 5.48}
